Measured values collected from several papers.
Each numbered part is a random draw from the data of one study; scales do not carry over between parts. Positions count from the first letter of the parent shown.

Study 1
Target: CCND3, cyclin fold, Cln2 fusion (human)
Method: yeast growth competition, sequencing
Medium: yeast
Setting: weak parent motif
Baseline: not given
Direction: higher = stronger binding
Measurement: normalised enrichment score
Starting sequence: CDKN1B docking peptide (human); PSACRNLFGPVDH
PSACRNLFGPDDH [V11D]: 0.185
PSACKNLLGPVDH [R5K F8L]: 0.0522
PSACRNLFGPVDP [H13P]: 0.129

Study 2
Target: RNA binding protein fox-1 homolog 2, RRM domain, GST-SBP tag (RBFOX2, Homo sapiens, UniProt O43251-10, residues 100-194)
Method: RNA Bind-n-Seq
Molecule type: RNA
Medium: in vitro
Concentration: 365 nM
Setting: natural RNA segment, single round, ends assumed
Baseline: no-protein control
Direction: higher = stronger binding
Measurement: RBNS enrichment (R)
Target sequence (chain): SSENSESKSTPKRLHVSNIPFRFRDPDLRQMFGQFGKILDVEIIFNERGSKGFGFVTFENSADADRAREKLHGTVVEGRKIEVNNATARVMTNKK
GGGAGUUCUACAGUCCGACGAUCAGUUCUCUCUUCUUUUCCUCAGGUAGGACAGCUCUAGCAUUUUCUUAAUCAGGAAUAUUGUGGUAAGCUGGGAGUAUCACUCUGGAAGAAAGUAACAUCUCCAGAUGAGAUGGAAUUCUCGGGUGCCAA: 0.195
GGGAGUUCUACAGUCCGACGAUCCUUGUACCCAGAGUGAUUCUACAUGGGAAAAACAAACCAGCUUUUUUCAGAGAGUGACCGAAUAGGAAGAAGGGAUUCAGAAAUAUGAUGUAGUAGAACAUGCCCUGCAGUGGAAUUCUCGGGUGCCAA: 0.354
GGGAGUUCUACAGUCCGACGAUCAUGUUCCUCAGUCGCCCAGUAUGUGAAAGGAGAUAUGAGAGGAGACAAAUGAGUUGAUGGUCUAAAUUAUAAGAUUUGUGUCACAUUAUCUUGAUGCCAGUUUGCCAAAUUGGAAUUCUCGGGUGCCAA: 1.62
GGGAGUUCUACAGUCCGACGAUCGGAAAAAGCACAAGAAGCGUGAGAGAUACCGCCAUUCCUGGAGACAAAGCCCACCUGCUCAUUCUCGUAGCUUUAAAGAAAAAGAAAAAGGAAAAAUAAGGAAAACUGCAUGGAAUUCUCGGGUGCCAA: 1.75

Study 3
Target: Sal-like protein 4, full length isoform B (SALL4, Homo sapiens, UniProt Q9UJQ4-2, residues 1-616)
Method: universal PBM
Molecule type: double-stranded DNA, one strand shown
Medium: in vitro
Concentration: not given
Setting: 8-mer, flanks averaged, mean of replicates
Direction: higher = stronger binding
Measurement: E-score
GGATAGAA: 0.0473
AATATGCC: 0.133
CCTCCGGA: -0.295

Single results of other studies
PhoQ, residues 284 288 289 292 302 303 QWGLFV  fold induction (PhoP, residues 12 14 15 18 19 DLLYY (Escherichia coli, UniProt P23836); Sort-seq, item: YFP reporter; E. coli; PhoQ-PhoP variant library, together with: 10 µM Mg2+; baseline: high Mg2+ state, higher = stronger signaling): 3.05

For quick reference, copied from above (study 3):
GGATAGAA: 0.0473
AATATGCC: 0.133
